Measurements of several laboratories.
Compare with care: the assays were run in different laboratories. Values joined by “and” are separate records of one study, mostly repeats; a detail may differ. Numbers after ± are the reported error.

Structure (SMILES)	tested on	assay	test system	setting	scale	endpoint	result
CC/C(=N\NC(=O)NCc1cccc(O)c1)c1ccc(O)c(C)c1O	SK-OV-3	gene expression, microarray, item: MYC		10 µM, 24 h	baseline: DMSO	log ratio	3.33
CC(Nc1nc(N2CCCC2)nc2ccccc12)c1ccccc1 (stereo not shown)	HeLa Kyoto	RelA nuclear import, high content imaging		0.16 µM, 3 h, with: 1 µM PMA, 60 min		cells with nuclear RelA	82.9% and 83.7%
Cn1cc(-c2ccc(-c3cncc(Cl)c3N3CCC4(CCNC4=O)CC3)cc2)cn1	COLO 205	gene expression, microarray, item: MMP2 mRNA		concentration not given, 2 h	baseline: untreated cells	log2 fold change	2.73
O=C(NCc1ccccc1)c1c(/N=C/c2c(O)ccc3ccccc23)sc2c1CCCC2	HBL-1			0.5 µM, 120 h		viability	120%
Nc1ccccc1NC(=O)c1ccc(CNc2ccc(NC3=C(Cl)C(=O)c4cccnc4C3=O)cc2)cc1	MDA-MB-231	annexin V/PI staining, item: annexin V+/PI-		8 µM, 72 h		early apoptotic cells	44.1%
C=C(C)[C@@H](CC=C(C)C)C[C@@]12C[C@@H](CC=C(C)C)C(C)(C)[C@@](CC=C(C)C)(C(=O)C(C(=O)c3ccc(O)c(O)c3)=C1O)C2=O	HBL-1			0.1 µM, 120 h		viability	54.7%
Cc1[nH]c(C)c(-c2ccc(CCc3ccc(C(F)(F)F)cc3)nc2)c(=O)c1Cl	Plasmodium yoelii		17XL	384-well		IC50	271 ± 1 nM
NC(=O)c1cccnc1	HBL-1			0.1 µM, 120 h		viability	114%
O=C(C[C@@H](C(F)F)n1ccc(F)n1)N1CCC(O)(Cn2cnc3c(cnn3-c3ccc(F)cc3)c2=O)CC1	CHP-212 resistant cells (pooled)	annexin V-PI flow cytometry		0.1 µM, 48 h		viable cells (annexin V-/PI-)	85.2% and 83.7% and 86.2%
CCC/N=C1\S/C(=C\c2ccc(OC[C@H](O)CO)c(Cl)c2)C(=O)N1c1ccccc1C	human primary astrocytes	single-cell RNA-seq		concentration not given, 48 h, with: cytokines	baseline: cytokines alone	downregulated genes	4070 genes
c1ccc2c(-c3ccncc3)c[nH]c2c1	HeLa expressing Ub(G76V)-GFP	Ub(G76V)-GFP degradation, cycloheximide chase		12 µM		inhibition	23%
CC[C@]1(O)C[C@@H]2CN(CCc3c([nH]c4ccccc34)[C@@](C(=O)OC)(c3cc4c(cc3OC)N(C)[C@H]3[C@@](O)(C(=O)OC)[C@H](OC(C)=O)[C@]5(CC)C=CCN6CC[C@]43[C@@H]65)C2)C1	BT-12	cell viability, MTT		10 µM, 72 h		inhibition	87.8%
Cc1nc(NC(=O)N2CCC[C@H]2C(N)=O)sc1-c1ccnc(C(C)(C)C(F)(F)F)c1	A2058	resazurin growth rate inhibition		72 h		GR50	> 5 µM
C=Cc1c2[n-]c(c1C)/C=c1\[n-]/c(c(C)c1C=C)=C\c1[n-]c(c(CCC(=O)O)c1C)/C=c1\[n-]c(c(C)c1CCC(=O)O)=C2.[Sn+4]	SH-SY5Y	RNA-seq, item: FGF5 mRNA		5 µM, 5 h	baseline: untreated cells	fold change	2.72
Cc1cc(=O)c(-c2ccc(Oc3cccc(Cl)c3)cc2)c(C)[nH]1	Plasmodium yoelii		17XL	384-well		IC50	440 ± 314 nM
COc1cc2nccc(Oc3ccc(NC(=S)NC(=O)c4ccccc4C)cc3)c2cc1OC	HeLa expressing Ub(G76V)-GFP	Ub(G76V)-GFP degradation, cycloheximide chase		12 µM		inhibition	5%
C=CC(=O)N1CCCN(C(=O)c2cc(Sc3cnc(NC(=O)C4CC4)s3)c(C)cc2OC)C[C@H]1C	human primary T cells			10 µM, six days, with: TCR stimulation		total cell number	decreased
COc1cc([C@@H]2c3cc4c(cc3[C@@H](O[C@@H]3O[C@@H]5CO[C@@H](C)O[C@H]5[C@H](O)[C@H]3O)[C@H]3COC(=O)[C@H]23)OCO4)cc(OC)c1O	HBL-1			0.5 µM, 120 h		viability	14.7%
O=C(/C=C/c1ccc(CN(CCO)CCc2c[nH]c3ccccc23)cc1)NO	BT-12	cell viability, MTT		10 µM, 72 h		inhibition	94.1%
Cc1cc(=O)oc2cc(NC(=O)CCCCCCC(=O)NO)ccc12	HBL-1			1 µM, 120 h		viability	15.7%
CCCCc1oc2ccc(NS(C)(=O)=O)cc2c1C(=O)c1ccc(OCCCN(CCCC)CCCC)cc1	human embryonic stem cell aggregates	mRNA level, microarray, item: KITLG		0.5 µM, 120 h	baseline: untreated, up-regulated	fold change	1.8 fold
Nc1cc(F)ccc1NC(=O)/C=C/c1cnn(C/C=C/c2ccccc2)c1	HBL-1			1 µM, 120 h		viability	103%
CCn1cc(-c2cc(Cn3ccoc3=N)cc3c2CCN([C@@H](C)c2cc(OC)ccn2)C3=O)c(C(F)(F)F)n1	HCC95	cell growth, inhibitor		120 h		EC50	2730 nM
CC(C)[C@H](C(=O)Nc1ccc(C(=O)NO)cc1)c1ccccc1	HBL-1			1 µM, 120 h		viability	0.708%
O=C(/C=C/C=C/C=C/C1CCCCC1)NC1=C[C@@](O)(/C=C/C=C/C=C/C(=O)NC2=C(O)CCC2=O)[C@@H]2O[C@@H]2C1=O	KYSE-70	cell growth, CellTiter-Glo		78 h		GI50	11000 nM

Repeated from above:
Structure (SMILES)	tested on	assay	test system	setting	scale	endpoint	result
O=C(C[C@@H](C(F)F)n1ccc(F)n1)N1CCC(O)(Cn2cnc3c(cnn3-c3ccc(F)cc3)c2=O)CC1	CHP-212 resistant cells (pooled)	annexin V-PI flow cytometry		0.1 µM, 48 h		viable cells (annexin V-/PI-)	85.2% and 83.7% and 86.2%
CCC/N=C1\S/C(=C\c2ccc(OC[C@H](O)CO)c(Cl)c2)C(=O)N1c1ccccc1C	human primary astrocytes	single-cell RNA-seq		concentration not given, 48 h, with: cytokines	baseline: cytokines alone	downregulated genes	4070 genes
